Measured values of several laboratories.
Parts stem from different laboratories: compare values within a part only.
Sequence of UniProt P42336 (whole entry, looked up): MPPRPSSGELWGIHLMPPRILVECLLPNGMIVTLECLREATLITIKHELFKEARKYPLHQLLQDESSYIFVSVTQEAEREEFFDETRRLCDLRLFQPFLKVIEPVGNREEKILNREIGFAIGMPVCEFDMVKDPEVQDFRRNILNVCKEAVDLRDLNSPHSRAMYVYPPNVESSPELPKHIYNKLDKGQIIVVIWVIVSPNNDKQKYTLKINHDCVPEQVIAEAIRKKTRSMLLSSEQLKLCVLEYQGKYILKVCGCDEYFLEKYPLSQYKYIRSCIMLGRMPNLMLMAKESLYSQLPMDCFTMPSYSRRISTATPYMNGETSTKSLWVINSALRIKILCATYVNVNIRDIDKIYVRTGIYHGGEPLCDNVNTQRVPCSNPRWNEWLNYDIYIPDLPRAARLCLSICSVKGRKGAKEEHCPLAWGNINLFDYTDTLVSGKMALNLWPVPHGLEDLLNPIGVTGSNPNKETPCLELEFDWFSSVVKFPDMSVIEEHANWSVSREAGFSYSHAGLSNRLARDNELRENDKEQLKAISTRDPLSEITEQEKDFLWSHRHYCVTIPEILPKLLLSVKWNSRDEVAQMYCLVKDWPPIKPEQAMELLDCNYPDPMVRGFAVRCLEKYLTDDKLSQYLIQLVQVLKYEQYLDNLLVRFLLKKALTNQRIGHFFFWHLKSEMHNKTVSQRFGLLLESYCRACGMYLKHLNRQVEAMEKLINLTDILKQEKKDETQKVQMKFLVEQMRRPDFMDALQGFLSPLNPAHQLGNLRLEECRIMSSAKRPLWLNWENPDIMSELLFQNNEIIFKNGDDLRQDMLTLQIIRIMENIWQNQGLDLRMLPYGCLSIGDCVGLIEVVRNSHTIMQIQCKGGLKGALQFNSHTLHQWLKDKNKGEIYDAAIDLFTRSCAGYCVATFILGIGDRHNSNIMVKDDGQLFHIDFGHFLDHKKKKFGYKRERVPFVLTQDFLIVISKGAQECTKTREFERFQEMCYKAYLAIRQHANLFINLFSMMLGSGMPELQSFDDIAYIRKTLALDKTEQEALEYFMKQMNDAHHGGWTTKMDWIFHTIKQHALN
Sequence of UniProt O15530 (whole entry, looked up): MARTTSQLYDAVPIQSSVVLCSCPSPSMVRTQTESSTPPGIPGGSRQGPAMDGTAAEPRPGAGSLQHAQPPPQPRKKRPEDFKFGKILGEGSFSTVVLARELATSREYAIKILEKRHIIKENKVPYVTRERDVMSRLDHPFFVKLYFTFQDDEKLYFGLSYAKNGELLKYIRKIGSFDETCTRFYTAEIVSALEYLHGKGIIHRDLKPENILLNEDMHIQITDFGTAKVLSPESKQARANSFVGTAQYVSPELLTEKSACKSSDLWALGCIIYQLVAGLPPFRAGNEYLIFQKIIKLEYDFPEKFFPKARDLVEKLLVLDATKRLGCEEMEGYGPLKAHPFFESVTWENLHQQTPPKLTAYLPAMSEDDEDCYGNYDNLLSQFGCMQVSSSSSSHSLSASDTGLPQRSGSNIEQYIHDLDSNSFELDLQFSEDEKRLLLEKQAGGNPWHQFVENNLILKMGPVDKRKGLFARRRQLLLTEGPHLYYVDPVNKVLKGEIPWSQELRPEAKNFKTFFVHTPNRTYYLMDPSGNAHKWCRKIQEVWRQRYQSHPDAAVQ
Sequence of UniProt Q9Y2H9 (whole entry, looked up): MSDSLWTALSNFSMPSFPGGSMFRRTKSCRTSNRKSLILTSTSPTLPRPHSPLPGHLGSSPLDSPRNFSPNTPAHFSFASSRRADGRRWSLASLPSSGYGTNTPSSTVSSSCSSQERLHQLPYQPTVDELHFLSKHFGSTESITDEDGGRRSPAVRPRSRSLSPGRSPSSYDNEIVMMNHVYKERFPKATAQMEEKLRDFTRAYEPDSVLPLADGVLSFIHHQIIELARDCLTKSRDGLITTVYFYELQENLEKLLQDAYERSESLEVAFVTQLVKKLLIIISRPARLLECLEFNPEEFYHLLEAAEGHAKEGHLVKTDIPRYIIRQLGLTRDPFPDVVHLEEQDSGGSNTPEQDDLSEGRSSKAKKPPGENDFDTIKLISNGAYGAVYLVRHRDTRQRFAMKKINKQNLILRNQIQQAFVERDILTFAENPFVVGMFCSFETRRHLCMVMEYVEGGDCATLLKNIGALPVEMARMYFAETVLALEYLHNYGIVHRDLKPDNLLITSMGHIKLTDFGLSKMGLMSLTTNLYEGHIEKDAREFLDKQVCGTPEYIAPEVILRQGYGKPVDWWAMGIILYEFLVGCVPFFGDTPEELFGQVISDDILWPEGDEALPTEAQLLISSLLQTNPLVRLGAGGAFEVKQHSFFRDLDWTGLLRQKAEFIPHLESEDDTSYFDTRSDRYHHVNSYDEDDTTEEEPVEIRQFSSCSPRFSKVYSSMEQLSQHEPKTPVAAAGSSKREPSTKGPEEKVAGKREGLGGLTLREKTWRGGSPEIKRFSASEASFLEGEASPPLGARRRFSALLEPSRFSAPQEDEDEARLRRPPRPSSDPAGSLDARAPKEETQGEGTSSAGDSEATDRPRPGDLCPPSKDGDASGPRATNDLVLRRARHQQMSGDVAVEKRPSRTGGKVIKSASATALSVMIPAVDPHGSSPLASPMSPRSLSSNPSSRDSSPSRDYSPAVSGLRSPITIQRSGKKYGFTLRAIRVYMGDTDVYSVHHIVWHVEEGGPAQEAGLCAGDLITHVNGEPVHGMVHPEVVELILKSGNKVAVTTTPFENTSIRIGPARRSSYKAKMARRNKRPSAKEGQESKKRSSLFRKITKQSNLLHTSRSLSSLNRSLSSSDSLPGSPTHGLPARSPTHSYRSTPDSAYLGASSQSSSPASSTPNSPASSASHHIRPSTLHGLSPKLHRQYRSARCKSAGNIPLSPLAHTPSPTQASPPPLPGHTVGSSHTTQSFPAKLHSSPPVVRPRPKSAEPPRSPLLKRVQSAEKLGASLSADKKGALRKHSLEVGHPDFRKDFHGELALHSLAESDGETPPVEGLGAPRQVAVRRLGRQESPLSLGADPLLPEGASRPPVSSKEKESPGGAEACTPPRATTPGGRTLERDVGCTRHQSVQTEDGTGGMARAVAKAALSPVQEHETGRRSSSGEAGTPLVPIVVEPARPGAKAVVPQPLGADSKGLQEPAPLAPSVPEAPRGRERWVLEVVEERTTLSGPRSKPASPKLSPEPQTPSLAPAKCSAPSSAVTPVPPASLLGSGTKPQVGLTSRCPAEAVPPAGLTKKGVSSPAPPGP
Sequence of UniProt P07948 (whole entry, looked up): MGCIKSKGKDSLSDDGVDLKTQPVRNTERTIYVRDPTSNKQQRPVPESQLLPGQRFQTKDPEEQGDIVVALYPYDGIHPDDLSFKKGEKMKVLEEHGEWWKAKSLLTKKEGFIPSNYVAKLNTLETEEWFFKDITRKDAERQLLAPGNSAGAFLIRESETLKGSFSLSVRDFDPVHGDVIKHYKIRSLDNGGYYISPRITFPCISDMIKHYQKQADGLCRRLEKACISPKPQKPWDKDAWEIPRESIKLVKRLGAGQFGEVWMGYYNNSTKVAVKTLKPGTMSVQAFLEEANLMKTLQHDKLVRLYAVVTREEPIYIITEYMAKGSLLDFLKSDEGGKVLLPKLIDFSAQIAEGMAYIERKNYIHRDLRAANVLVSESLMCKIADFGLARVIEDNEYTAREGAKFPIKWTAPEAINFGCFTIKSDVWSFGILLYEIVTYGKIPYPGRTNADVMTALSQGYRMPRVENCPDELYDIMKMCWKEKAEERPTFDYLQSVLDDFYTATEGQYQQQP

Series 1
Cell line: mouse MPNST tumor cells
Technique: high-content nuclear imaging
Measured: cell number
Tested at: 10 µM
Time: 12 h
Notes: mean of 2 replicates
Baseline: plate mean
Reading: higher = more cells
Quantity: nuclei count
CC1=C(C(=O)OCCN(Cc2ccccc2)c2ccccc2)C(c2cccc([N+](=O)[O-])c2)C(P2(=O)OCC(C)(C)CO2)=C(C)N1 (centres unmarked): 2.73 z-score
CC1(C)CCC(C)(C)c2cc(NC(=O)c3ccc(C(=O)O)cc3)ccc21: -1.31 z-score
C[C@](N)(Cc1ccc(O)cc1)C(=O)O: 1.06 z-score
NC(=O)c1noc([C@H](CCCC2CCCCC2)CC(=O)NO)n1: 2.89 z-score
OC(CCN1CCCCC1)(c1ccccc1)C1CC2C=CC1C2 (centres unmarked): 1.21 z-score

Series 2
Compound: CN(C)CC#Cc1ccc(OCCCc2sc(N3CCc4cccc(C(=O)Nc5nc6ccccc6s5)c4C3)nc2C(=O)O)c(F)c1
Observed: cell-free assay
Technique: competition with immobilised ligand
Tested at: 1 µM
Quantity: remaining binding
EPHA3 (Homo sapiens, UniProt P29320): 91%
PRKD2 (Homo sapiens, UniProt Q9BZL6): 84%
PIK3CG (Homo sapiens, UniProt P48736): 100%
MARK2 (Homo sapiens, UniProt Q7KZI7): 100%
ULK3 (Homo sapiens, UniProt Q6PHR2): 100%
PDPK1 (Homo sapiens, UniProt O15530): 100%
MAP3K13 (Homo sapiens, UniProt O43283): 96%
FGFR3 (Homo sapiens, UniProt P22607, G697C): 88%
PRKD1 (Homo sapiens, UniProt Q15139): 100%
CLK3 (Homo sapiens, UniProt P49761): 86%
Tyrosine-protein kinase JAK1, JH1 (JAK1, Homo sapiens, UniProt P23458): 97%
PIK3CA (Homo sapiens, UniProt P42336): 89%
MAPK9 (Homo sapiens, UniProt P45984): 76%
EGFR (Homo sapiens, UniProt P00533): 87%
CAMKK1 (Homo sapiens, UniProt Q8N5S9): 87%
MAST1 (Homo sapiens, UniProt Q9Y2H9): 89%

Series 3
SMILES: CC(C)(C)c1nc2c3cc[nH]c(=O)c3c3cc(F)ccc3c2[nH]1
Observed: enzyme activity
Action: inhibitor
Tested at: 0.5 µM
Baseline: control
Quantity: remaining activity
BTK (Homo sapiens, UniProt Q06187): 80.5%
NEK4 (Homo sapiens, UniProt P51957): 65.6%
CHEK1 (Homo sapiens, UniProt O14757): 22.9%
PRKCD (Homo sapiens, UniProt Q05655): 43.6%
LYN (Homo sapiens, UniProt P07948): 101%
MAP3K10 (Homo sapiens, UniProt Q02779): 89.7%
PRKG1 (Homo sapiens, UniProt Q13976): 40.2%

Series 4
Observed: AlphaScreen signal
Technique: AlphaScreen counter screen
Matrix: His6 peptide without bromodomain
Tested at: 50 µM
Notes: assay interference check
Quantity: inhibition
COC(=O)c1ccc2c(c1)NC(=O)/C2=C(\Nc1ccc(N(C)C(=O)CN2CCN(C)CC2)cc1)c1ccccc1: 27.1%
Cc1nc(-c2ccccn2)nc(NCCNc2cc(C(F)(F)F)ccn2)c1Cl: 17.8%
CC(Nc1nccnc1-c1ccccc1Cl)c1ccccc1 (centres unmarked): 16.4%
CNC(=O)c1cc(Oc2ccc(NC(=O)Nc3cc(C(C)(C)C)nn3-c3ccc4ncccc4c3)c(F)c2)ccn1: 27.6%
Br.CC(=O)c1cccc(Nc2nc(-c3c(C)nc4ccccn34)cs2)c1: 9.3%
CC(=O)O.Cn1cc(C2=C(c3cn(CCCN)c4ccccc34)C(=O)NC2=O)c2ccccc21: 93.7%
Cc1c(NC(=O)OC[C@@H]2COCCN2)cn2ncnc(Nc3ccc4c(cnn4Cc4cccc(F)c4)c3)c12: 72.6%
